Assay results pooled from the literature.
Numbered parts are unrelated; each lists some results of a single study.

Sample 1 — method: RNA Bind-n-Seq; form: RNA; medium: in vitro; tested at: not given; relative to: input RNA pool; reading: higher = stronger binding
Target: RING finger protein unkempt homolog, zinc fingers 1-6, GST-SBP tag (UNK, Homo sapiens, UniProt Q9C0B0, residues 30-357)
Chain of UniProt Q9C0B0 (30-357, looked up): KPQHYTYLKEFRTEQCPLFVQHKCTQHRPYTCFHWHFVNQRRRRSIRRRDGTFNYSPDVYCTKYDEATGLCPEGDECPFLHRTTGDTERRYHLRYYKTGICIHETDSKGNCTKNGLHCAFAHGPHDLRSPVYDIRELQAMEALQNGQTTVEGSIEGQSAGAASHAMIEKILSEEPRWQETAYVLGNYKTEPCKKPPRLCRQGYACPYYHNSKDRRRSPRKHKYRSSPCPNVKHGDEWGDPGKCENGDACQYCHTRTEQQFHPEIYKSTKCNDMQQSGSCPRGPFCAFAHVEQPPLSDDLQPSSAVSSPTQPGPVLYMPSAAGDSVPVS
Setting: RNA with constant flanks, human and mouse sites, ends assumed
Strand	bound/input enrichment
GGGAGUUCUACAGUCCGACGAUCGCUAGUUUUAUCCCUGCAGUGAAUGAUUUGACCUCUGAUCUCUUUCGUACCAAAUCCAAAAGUGAAGAAAUCAAGAUUGAACUGGAAAAACUUGAAAAAAAUUUAACUGCAACUUUAGUACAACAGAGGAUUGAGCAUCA	3.62 ratio
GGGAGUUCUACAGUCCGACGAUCUAUAUCAGUAUGUUAAACUUUAUUGCCACAUUUAAAGGACUGUAUUUUCAUACUUUUUUGCAUUUUACCUUUCAUCUACCAAUCCAUGUGCAUUGGAUUGCACACUAAGAUGUAUUUUCUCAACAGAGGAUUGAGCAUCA	0.452 ratio
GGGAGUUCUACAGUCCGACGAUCUCUUCCGCCCCGGCCCGGAAGGGUGAUGUGGCUGGACCAGCACCGGCCUCACUAUGUCUGCCAUUUUCAAUUUUCAGAGUCUGUUGACUGUAAUCUUGCUGCUUAUAUGUACAUGUGCUUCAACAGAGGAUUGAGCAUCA	0.388 ratio
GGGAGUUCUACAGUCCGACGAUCAUCAGUGAGGUGAAAAACAGACCUGAUCAGGGGCUAGAGGGUCUGACUUCAGGGCUCCAGUGCCCUGUUGAAGCAGAGCAGCUCUCUGACACAGAUUCUGUGCAAAUGUUUCUUGAACUUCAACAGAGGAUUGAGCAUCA	0.0733 ratio
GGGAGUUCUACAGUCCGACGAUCUCUGUGUGCUCUGAGGGAGGGUCGCGCCGCCAGCCACCGCCGGAGGAGCCCCUCGGGCCGUUGUAAGCAUCAAUAAUGUCUUUCAUCUUUGAGUGGAUCUACAAUGGCUUCAGCAGUGUGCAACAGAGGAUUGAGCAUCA	0.103 ratio
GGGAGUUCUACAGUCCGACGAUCCCACCAGUCACUGAGGAAGAUCUAGAUUAUCGGACAGAAAACCAGCAUGUACCCACCACCAGUUCUUCAUUAACUGACCCUCAUGCCGGAGUGAAGGCAGCCCUGUUACAGCUGCUUGCUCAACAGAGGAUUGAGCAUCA	0.204 ratio
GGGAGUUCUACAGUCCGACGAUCUGCUCUACGGGUGAUGUGAUUCUGCAGGUAAAAGACCAUCAGGUUGUUUUUUUCCACAUCUGGGACACAGUUGUUUGUGUAGGAACAUAACAAGGGUGUACGGCUUUUCUUGAGCCCAUUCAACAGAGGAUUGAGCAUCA	0.168 ratio
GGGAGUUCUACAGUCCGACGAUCUAUGCUGGGACCGCUAGCCCUUCCGGCGCGCCUCAGGACUUCGGGUCCCCUCACCCCGGGCGGAUGCCCAAAGACUCCGCCUUCCCAAGAGCCCCUGCGGCCGGGCGCGAAAAUGGCGGCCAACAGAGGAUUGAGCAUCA	0.112 ratio

Sample 2 — method: RNA Bind-n-Seq; form: RNA; medium: in vitro; tested at: 200 nM; setting: whole 134-nt RNA, ends assumed; with: 150 mM KCl; relative to: input library; reading: higher = stronger binding
Target: Fragile X messenger ribonucleoprotein 1, C-terminal low-complexity region (Fmr1, Mus musculus, UniProt P35922)
Strand	log2 enrichment
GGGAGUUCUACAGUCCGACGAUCUCCUCAAGUCCUGUGCUACACAUCGUAUGUACCGAAUCGGGAGGAGGGAGGAAAGUAUUAUGUUACGCCGUUCGGAUCUGCACUUCCAGCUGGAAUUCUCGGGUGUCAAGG	-0.258
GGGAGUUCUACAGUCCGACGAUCGCAGGAAGUAAAAACAAAUGGAAAUGCUUCGGAUAGUGGCAGGGGUGGGGGUUGCUAAGCAAAGGGUGGGAUGGGAGUGGGUAAAGAGUUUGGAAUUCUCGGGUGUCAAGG	0.458
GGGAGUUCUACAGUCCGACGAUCUGGGAGGUGGAUUUUGUUUAUUUUUUUAGCCCAUUUCCAGGGGUGGGAAUUUUUUUUUAAUAUGUGUCAUGAAUAAAGUUGUUUUUGAAAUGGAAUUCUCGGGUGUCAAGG	0.132
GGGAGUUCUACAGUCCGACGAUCUGAAAAUUCUCGACUGGCUGCUGAGGUUUACAAAGACAUGCCGGAAACCAGCUUUACUCGAACCAUUUCUAAUCCUGAGGUGGUUAUGAAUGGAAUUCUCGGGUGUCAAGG	-1.53
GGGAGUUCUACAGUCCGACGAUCUCCUCAAGUCCUGUGCUACACAUCGUAUGUACCGAAUCGGGCGGCGGGGCGGAAAGUAUUAUGUUACGCCGUUCGGAUCUGCACUUCCAGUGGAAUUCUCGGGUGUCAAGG	0.0358
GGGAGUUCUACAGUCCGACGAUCAAGUCCUGUGCUACACAUCGUAUGUACCGAAUCGGAAAAAGGUUUUUGGAAAAAGGAAAGUAUUAUGUUACGCCGUUCGGAUCUGCACUUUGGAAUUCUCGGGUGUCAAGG	-1.36
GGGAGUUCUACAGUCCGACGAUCGCAGGAAGUAAAAACAAAUGGAAAUGCUUCGUAUAGUGGCAGGGGUGGGGGUUGCUAAGGAAAGGGUGGGAUGGGAGUGGGUAAAGAGUUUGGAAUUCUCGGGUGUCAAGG	0.292
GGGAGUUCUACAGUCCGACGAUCAAGUCCUGUGCUACACAUCGUAUGUACCGAAUCGGGUUUGGGAAAGGGUUUUUGGGAAAGUAUUAUGUUACGCCGUUCGGAUCUGCACUUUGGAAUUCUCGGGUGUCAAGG	0.746
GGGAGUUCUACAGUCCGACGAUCCCUGUGCUACACAUCGUAUGUACCGAAUCGGCCCCCCGGGGCCCCCCGGGGCCCCCCGGGAAAGUAUUAUGUUACGCCGUUCGGAUCUGCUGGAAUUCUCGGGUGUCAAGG	-0.77
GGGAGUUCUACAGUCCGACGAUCGUCCUGUGCUACACAUCGUAUGUACCGAAUCGGGGAAAAAGGGAAAAAGGGAAAAAGGGAAAGUAUUAUGUUACGCCGUUCGGAUCUGCAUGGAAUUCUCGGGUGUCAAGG	-0.178

Sample 3 — method: protein-binding microarray; form: double-stranded DNA, one strand shown; medium: in vitro; tested at: 0.8 µM; setting: whole 60-bp probe, no competitor; reading: higher = stronger binding
Target: Centromere-binding protein 1, full length, N-terminal tag (CBF1, Saccharomyces cerevisiae, UniProt P17106, residues 1-351)
Chain of UniProt P17106 (whole entry, looked up): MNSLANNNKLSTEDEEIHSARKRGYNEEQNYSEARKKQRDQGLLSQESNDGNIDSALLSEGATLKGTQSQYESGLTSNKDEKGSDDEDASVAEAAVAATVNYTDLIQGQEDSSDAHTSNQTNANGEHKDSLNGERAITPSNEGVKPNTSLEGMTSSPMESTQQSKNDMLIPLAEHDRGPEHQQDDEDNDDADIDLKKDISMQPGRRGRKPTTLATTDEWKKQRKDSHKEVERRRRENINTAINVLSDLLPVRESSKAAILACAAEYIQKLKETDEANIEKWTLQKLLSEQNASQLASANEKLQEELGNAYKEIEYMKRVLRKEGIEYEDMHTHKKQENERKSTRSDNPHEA
Strand	fluorescence intensity [a.u.]
GAATCCAGAACCAGCCGTCAGGGATATTTGAATTAGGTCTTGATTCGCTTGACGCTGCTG	508
GAATAACATATTAGTGTCACGACCGCTAGCCAATAGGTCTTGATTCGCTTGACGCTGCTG	710
CTATTACTGTTTCAACTGATGATACTGATATGCTTCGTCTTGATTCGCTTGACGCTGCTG	538
GAATTGATATCTAATCTCACCAGACTTTCAAGTTAGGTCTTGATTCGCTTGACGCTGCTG	529
GAACTTCTACGGAAGCCCACCAGATAAGCGCCTTAGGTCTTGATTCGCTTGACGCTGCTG	441
GAATATTATTTAATGCACATGTTAATGGACGGTTAGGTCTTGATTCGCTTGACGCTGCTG	850
CTAGTGCTTCTCCACGTGGATACGTACCGTTGTTTCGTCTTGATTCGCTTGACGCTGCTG	3300
CTATCACAAATAGATCACATGATATATTTTTTATTCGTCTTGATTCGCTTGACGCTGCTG	6350
GAAAGAATCGAAAATCACGGAAGTGGTACCAAATAGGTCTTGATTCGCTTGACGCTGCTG	514
GAAAGATTAACTGACTACGTGATTTTTTAACTGTAGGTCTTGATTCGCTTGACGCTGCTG	727
CTAAAACGGAGCAGTCATATGATCAAAATACAGTTCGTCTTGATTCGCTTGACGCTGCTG	2230
CTATAGTTTTGTCTCAACGTGTATTTTATCGGTTTCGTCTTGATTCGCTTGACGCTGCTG	544
GAAAATGTGTGCCGGGTCATGAGATGCCAAACTTAGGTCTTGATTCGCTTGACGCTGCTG	633
GAAATCCCCATTGGACACGTTCATGTCATTCATTAGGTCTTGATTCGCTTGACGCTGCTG	522
GAAGCCCCCCTCACGCACGGGACGGAAGAAGGGTAGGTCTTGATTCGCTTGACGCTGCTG	805
GAAACGTACTTATAAAACGTGTAAAAACTTGCTTAGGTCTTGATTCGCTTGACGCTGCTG	568
TGTACGAAGCTATGTTCTGATGTTATAGTAGTTAGGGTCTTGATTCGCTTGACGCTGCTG	536
CTAGAATGAGGAACAATCGTGATATTATTATGTTTCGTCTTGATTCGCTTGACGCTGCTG	557

Sample 4 — method: RNA Bind-n-Seq; form: RNA; medium: in vitro; tested at: 365 nM; relative to: no-protein control; reading: higher = stronger binding
Target: RNA binding protein fox-1 homolog 2, RRM domain, GST-SBP tag (RBFOX2, Homo sapiens, UniProt O43251-10, residues 100-194)
Setting: natural RNA segment, single round, ends assumed
Residues (chain): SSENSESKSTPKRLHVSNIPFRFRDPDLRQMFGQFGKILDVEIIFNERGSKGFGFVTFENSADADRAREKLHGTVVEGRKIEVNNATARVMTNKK
Strand	RBNS enrichment (R)
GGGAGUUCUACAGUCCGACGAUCUUAAUGACAGAAGGAAGCCCCGCCCCUCACUGCUGUCAAAGCCUUCAGUAAACAUGUGAAUCCUGAAACCCUAACAUUCUGAUUGCAAUCUCUACUCAUCCCUCCUUCCCUGGAAUUCUCGGGUGCCAA	1.14
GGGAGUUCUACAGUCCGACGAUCAGUACCUUUAACUCAAUUUAAUAUAACAAGAAAUCGUAAAAUACUUAUAACCUAUCUUAGAGAAAUGAGUGCUGGUUUUGAGAGUUGUUUUUUAACUGAAAGAUUAUUUCUGGAAUUCUCGGGUGCCAA	0.405
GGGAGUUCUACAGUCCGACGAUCUUUAGUAAUGCUAUCAGUCCUCCAAGUGUUAGGGACAAUCUUAGAAUUCUCAUGUAAUGAGAAGCAAGAAAACUAUGUGUUACUAUUCAUUAUAUUUCAUGUUUGACCAUUGGAAUUCUCGGGUGCCAA	0.351
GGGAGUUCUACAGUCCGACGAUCUAUUAGUUUAGGUCGGGAACUGAGAUAUUGUAAUCAAAUAGUUAACAUCAGGAAGUUAAUUUGGCUGGCAAAAUUCUAGGGAAACUUGGCCAGAAAACUGGUGUUGAAGGUGGAAUUCUCGGGUGCCAA	0.597
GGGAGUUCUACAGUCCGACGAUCGCCCAGGAGUGGGGAGGCUUUGGCCAGGGAUGCUGCCACUUGUGCGUGAGUCCGCGGCUGGCCCUUGGAGGUGACCAUCCAGGCAGGCCUGGCUCAGACUGGAAGGGCUGUGGAAUUCUCGGGUGCCAA	0.94
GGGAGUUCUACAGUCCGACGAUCACACUGAUAGUAUCUCAUGAGUAAUGUGUGUUUUGGGAGAGGGAGGGAUGCUGAUUGAUAUUUCACAUUGUAUGAAAUACCAUGUUUGAAACUCAUAGCAAUAAUGCUAUUGGAAUUCUCGGGUGCCAA	0.626

For quick reference, copied from above (sample 3):
Strand	fluorescence intensity [a.u.]
CTATCACAAATAGATCACATGATATATTTTTTATTCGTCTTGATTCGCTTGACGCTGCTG	6350
GAAAGAATCGAAAATCACGGAAGTGGTACCAAATAGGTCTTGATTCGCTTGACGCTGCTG	514
GAAAGATTAACTGACTACGTGATTTTTTAACTGTAGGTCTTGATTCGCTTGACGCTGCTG	727
GAATTGATATCTAATCTCACCAGACTTTCAAGTTAGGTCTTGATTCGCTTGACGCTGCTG	529
GAATAACATATTAGTGTCACGACCGCTAGCCAATAGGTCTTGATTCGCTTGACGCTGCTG	710
GAAGCCCCCCTCACGCACGGGACGGAAGAAGGGTAGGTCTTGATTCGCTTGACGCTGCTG	805
CTATAGTTTTGTCTCAACGTGTATTTTATCGGTTTCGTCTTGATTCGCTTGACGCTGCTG	544
